Published values of several laboratories.
Parts stem from different laboratories: compare values within a part only.

Series 1
Target: RNA binding protein fox-1 homolog 2, RRM domain, GST-SBP tag (RBFOX2, Homo sapiens, UniProt O43251-10, residues 100-194)
Technique: RNA Bind-n-Seq
Molecule type: RNA
Medium: in vitro
Tested at: 365 nM
Setting: natural RNA segment, single round, ends assumed
Reference: no-protein control
Direction: higher = stronger binding
All sequences stand within: GGGAGUUCUACAGUCCGACGAUC … UGGAAUUCUCGGGUGCCAA
Construct (chain): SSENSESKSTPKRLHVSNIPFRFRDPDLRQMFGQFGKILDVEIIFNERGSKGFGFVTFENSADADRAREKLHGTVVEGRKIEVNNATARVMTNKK
Strand	RBNS enrichment (R)
GGGGCGUCUUGCCCCUAUAUAUCAUCUUCCCGGAUUCCACUCCCUGUUGUGGGAAUCGCGCCCACCCCCAUCCGUGUGUUGUAGCCACUCACGGUUUGCAUCAAGAGUGU	0.379
CCUUAGAUCCUUUUCUGGGUGAUAAUAGGGAUGUGGGCCUUUUGUGUUUAAGGAGAGUUUCUAAUAGGGCUGUGCUGGUAGAGUGUGAAGGGCCAGAGUCACAGUAUGGC	1.01
UGACUGUAAUACAGCCUUCAUUGUGCUAUUCAUCCCAUUGUUUGCUUCACUCUGUCUGUGUAAAAGCCAGGGCUAUUCCCGCUUAGAUGAUUGCUUAUUUAUGUGUAACA	1.32
UACUUGAUCCUCCUGAAAUGAGAGAUUUUCCUGAGAUGACUGAGUAUGGAGAUUACCAGGCAGAUGAUACCGAAAUGCUUAAAGGGGCUGUGGCUGAGGCUGUAGCAUCU	0.734
UCAGCCUUCUCCAAGGGAGAGCCUGGCUGGCUAACAGAGGGAGCCUGAGUCAGUCACAUCUGGCAGCUGGCAGCAAGCUCUUCAUCCCUCCACAGUGAGGAAGCUGGCAG	0.282
CGCCUGGCAUGGGACACCAAGUGGAAGGCCCAAGCAGCUCAUCUGCUCUUGGGACCAGGGGCCAGUUGGGUUGGGUCUGGUCACGGCAGAGCUAUUGUGGAGGGUCAGGA	1.4
CCUGACUCCCAGGAUCCUCCUACCCUCAUCUCACAGAUAACUUCAUGCAUCAAACUGGAACCCCUACCUCAUAUUUCCUGCUCCAGGAAGGUUGAGGUUGAAAAAAAAGA	2
GGGAAAGCUGGAUCCCUCUGGCUGACUUAGAGUACUGUGACUUGGGCAUUGCUAAUGCCAGCGUGGGGCUUGCUUGUUUGGGGAGUGGGCUAAGUGGGUGUAGGGGUGGA	1.73
UAUGUAUAAUCUGUAUUUGAAAUCAUUUUGCAAUCUAUGGAAAUAGAGUAGCAAUUGCUAUUUCUAAAUUGUGAACUUUAAGUCAAUCUAGAUUUAUUUUGAGAAGUAAU	0.435
CCAGUUCCCUCUCCAAUGUCCGGUGCCAUCUUUCCUGACCUUUGUUUCUUUCUGUUCAGGAACCAUCAGUCCCCUUGUAAUAAAGGUGGUAGAUUUCAUUGAGGUUUUAG	0.454
UGGCAGGAAAUAUCCCCUCAUGUCCCAGGGAAUUGCAGAUGGGUCUUCUAUACCCUUCUACCUGCCCUUAGAUCUCCAUUUUUAUCAAAUAGUACAUUGCAUUUUGAAGU	0.732
CCAUGUUCAGAUGUAUGGUGGAUGUUACUGUCACAAUAAAGUUCAAAGUGGCCAGUGCCCAUCAGAGAGCAGUGUUGUCAUUGAACUUGGCCUCUACCUGGGGGUAUAUG	0.473

Series 2
Target: RING finger protein unkempt homolog, zinc fingers 1-6, GST-SBP tag (UNK, Homo sapiens, UniProt Q9C0B0, residues 30-357)
Technique: RNA Bind-n-Seq
Molecule type: RNA
Medium: in vitro
Tested at: not given
Setting: RNA with constant flanks, human-mouse chimeric sites, ends assumed
Reference: input RNA pool
Direction: higher = stronger binding
All sequences stand within: GGGAGUUCUACAGUCCGACGAUC … CAACAGAGGAUUGAGCAUCA
Target sequence (chain): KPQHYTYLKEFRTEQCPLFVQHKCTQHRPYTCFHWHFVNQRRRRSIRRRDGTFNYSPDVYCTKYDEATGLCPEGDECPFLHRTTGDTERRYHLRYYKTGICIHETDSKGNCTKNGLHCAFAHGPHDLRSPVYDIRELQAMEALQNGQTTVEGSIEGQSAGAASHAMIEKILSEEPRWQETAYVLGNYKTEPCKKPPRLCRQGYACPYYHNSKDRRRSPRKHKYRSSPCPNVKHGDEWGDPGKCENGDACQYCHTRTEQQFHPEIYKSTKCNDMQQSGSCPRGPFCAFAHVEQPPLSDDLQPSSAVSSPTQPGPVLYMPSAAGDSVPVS
Strand	bound/input enrichment [ratio]
AGGAGGAGGUUAAAGGGUGAGAGUGGGGUGGAAGACUGUGUCAUGGCUCUGGAGACACUGUUCAGUGUCCUGCUUUCUCUGUGCAGACUGAUGGCCCCCUACACACCUUUUCUCACUGAG	0.0533
AAAGUGAUGACUAUGUUUGUCCAACGACAGGUAUUUUCGGAGAGCAAAGAUGAGAUUGCGUUAGUCCUGUUUGGUACAGAUGGCACUGAUAAUGCCCUUGCUGGCAAGGAUCAGUAUCAG	0.142
UUUGUAUUUAUGCUAAGCACACGUGCUGGUGGUCUGGGCAUCAAUCUUGCAACUGCUGAUGUAGUAAUUUUAUAUGACUCAGAUUGGAAUCCGCAAGUUGAUCUUCAGGCUAUGGACCGU	0.423
AUGGAGAAGGAUUCUCUGCCCCGCUUUGUGCGCUCUGAAUUUUAUAAGGAGCUAAUCAAGUAGUCAUUUAGCCAGGCUUCCAAAAGUUGCCCUGUGAGUUGAGUUACAUAAUAACCCGCA	0.6
UUUCUAUUGCAGCAAACGAUGCUAAGAAUUAAGGAUCCUAAGAAGUCCCUGGAUUUUUAUACGAGGGUUCUUGGACUGACCCUCCUGCAGAAGCUUGACUUCCCUGCUAUGAAGUUCUCG	0.492
AGAAUCUUGGGACUGUUUUGCUUGAUUGGUCAUUGAUAGCUUAACAAACAUGGAGAUAAGAUUAGAAAUCUUGACAUCAACAAGUAUUAAGCAGAAAAAACCAUGGCCACGUGUCUCCUG	0.133
UAAAUUAGGGCUGCCGUUUUCUGUUUCUCCCUGGGCUGCGGAAAGCCAGGCGGUUUUAUCUAGUUUGUACAAGGCUGCUGGUGUUCCCUCUUUUUUUCCACGAGGGUGUUUUUGGCUGCA	0.866
UGUGCAUUAUGAUGCUUGAGAUGGUUUUGCAAAAGCAGAAAUCGCUGCAAGGUAAUCACAAUAGAUAAAAGUGGUAUUUUAAACCUUUGAAAUAAAUGGAUGUAACUGUACCUUGGUACA	0.479
AACAGAUUGUCUUUAAGCAUUCCAAGCGAGAAUGCUGAAAUAGUCAUUGUUGCCCAUGUGCCUUCUGACUGAGCUUUUAAUUAAUUGCAUGUUACAUCUUUCCUUCACUCCAGAAUUGUU	0.447
UUGAAAAACACAGAUAUCAAAGUUGUUGACUUUGGAAGUGCAACGUAUGAUGAUGAACAUCACAGUACUUUGGUGUCUACCCGGCACUACAGAGCUCCCGAGGUCAUUUUGGCUCUAGGU	0.295
CACAGAGCAGCACCUACCCCCUCCUCCUUUCCACACCUGCAAACUCUUUUACUUGGGCUGAAUAUUUAGUGUAAUUACAUCUCAGCUUUGAGGGCUCCCUGUGGCAAUUCCCGGAUUAAA	1.4

Series 3
Target: Interferon regulatory factor 5, full length, phosphomimetic (IRF5, Homo sapiens, UniProt Q13568-2, residues 1-514, S451D/S453D/S456D/S462D)
Technique: protein-binding microarray
Molecule type: double-stranded DNA, one strand shown
Medium: in vitro
Tested at: 940 nM top
Setting: 60-bp whole probe
With: salmon DNA 0.4 mg/ml
Reference: random background probes
Direction: higher = stronger binding
All sequences stand within: GCCTAGCAC … GTCTTGATTCGCTTGACGCTGCTG
Strand	fitted relative affinity
TTAGATTTCAGTCTCGACTAGTGCTAG	2.42 z-score
CTTTTTTTGGTAATAGTGAAGTGCTAG	0.418 z-score
GACGGTCTCTTTCTCCTGACGTGCTAG	1.31 z-score
TCATGTCTGGGATGTAATACTGTGCTA	0.0644 z-score
TTAGCTATCCTACTGCTTTAGTGCTAG	0.2 z-score
GACGATCTCAGTTTCAAGACGTGCTAG	1.13 z-score
GGTACTCACCTCCAGGCTGAGTGCTAG	0.194 z-score
GCCTTTATATACCTGAATATGTGCTAG	0.577 z-score
GACGGTTTCCTTGTCCTGACGTGCTAG	1.15 z-score
TTCACTCTCTGCTTGTGTCTGTGCTAG	1.81 z-score
TCAAATTGTCCTTTCACACTGTGCTAG	0.585 z-score
TTAGATATCGGGCATCGATTAGTGCTA	-0.0281 z-score
GACGGACTGCTTGTCCTGACGTGCTAG	-1.04 z-score
AGACTTTTTTCAGACCTGTCGTGCTAG	0.654 z-score
TTAGATATCAGTTTCGAGTAGTGCTAG	4.22 z-score
TCACTTCTGGTGCTCATCTGGTGCTAG	0.386 z-score
TTAGGTATCGGGCCTGGGTTAGTGCTA	3.9 z-score
TCACCTTTATGTACTCTCACTGTGCTA	1.75 z-score
TGATTTTGGTCTTTCTGTTTGTGCTAG	1.54 z-score
GACAGTATCGACACTGGGGACGTGCTA	4.74 z-score

Series 4
Target: Histone acetyltransferase KAT6A, both winged helices, GST fusion (KAT6A, Homo sapiens, UniProt Q92794, residues 1-181)
Technique: protein binding microarray
Molecule type: double-stranded DNA, one strand shown
Medium: in vitro
Tested at: not given
Setting: 8-mer, flanks averaged, mean of 2 arrays, mostly near background
Reference: not given
Direction: higher = stronger binding
Target sequence (chain): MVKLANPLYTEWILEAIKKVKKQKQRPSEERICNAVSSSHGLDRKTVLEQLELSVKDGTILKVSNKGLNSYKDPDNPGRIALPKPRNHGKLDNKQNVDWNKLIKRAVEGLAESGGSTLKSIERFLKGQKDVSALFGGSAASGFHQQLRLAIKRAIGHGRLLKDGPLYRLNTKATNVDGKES
Strand	E-score
CCCCGCCG	0.31
TCTGAAAA	-0.163
CAAAGAGC	-0.0405
AATCCTAC	-0.181
AGAATCCC	-0.00784
GGTTAAAA	0.0284
CGACTCAG	-0.0627
CTGCCTGA	-0.157
CCCGCAGA	0.224
CCATGCCG	0.16
GGTACATA	-0.0518
CATCGATG	0.0216
CACCGGCC	0.227
TCATTCCA	-0.0862
GGCTGAGA	-0.14
AATCCTTA	-0.242
CCCCGAGA	-0.0448
ACCCGCAC	0.16
AGCAGAGG	-0.213
CCTTCATC	-0.188
AGGAACGC	0.15
ATCACGAC	-0.108
CATGAGGC	-0.063
ACTTCATC	-0.0985
ATCGCCCG	0.203

A few entries again (series 4):
Strand	E-score
GGTACATA	-0.0518
ACCCGCAC	0.16
GGCTGAGA	-0.14
ATCGCCCG	0.203
AGAATCCC	-0.00784
CCCGCAGA	0.224
AGCAGAGG	-0.213
CATCGATG	0.0216
CCTTCATC	-0.188
CATGAGGC	-0.063
